Published values gathered from unrelated publications.
Lines come from different studies, so protocols differ. Several values in a cell are separate wells, animals, samples, runs or records. ± gives the spread as reported.

NC(=O)c1cccc(-c2c[nH]c3ncnc(N4CCOCC4)c23)c1  phospho-MOB1 level (Western blot, item: MOB1 Thr35 phosphorylation; C57BL/6 mice, liver; intraperitoneal, 20 mg/kg, 1 h; reference: vehicle): decreased
CCCCC1CNC2CCc3ccc(OC)cc3C12.Cl (racemic)  trials to criterion (memory retention, foot-shock T-maze avoidance; SAMP8 mice; intraperitoneal, 0.1 mg/kg daily; reference: vehicle): decreased
C[C@]1(CO)Cc2ncn(-c3ccc(C#N)c(Cl)c3)c2C(=O)O1  urinary potassium excretion 0-24 h (Japanese subjects; 80 mg single dose): 31.7 mmol
Cc1cn(-c2cc(NC(=O)c3ccc(C)c(Nc4nccc(-c5cccnc5)n4)c3)cc(C(F)(F)F)c2)cn1  ADAS-Cog score (Homo sapiens; 300 mg, 12 months; direction not given): 33.9 ± 10.2
CN1CCN(S(=O)(=O)c2cc([N+](=O)[O-])ccc2N(CCOS(C)(=O)=O)CCOS(C)(=O)=O)CC1  event-free survival (NSG mice, sample BG PDX; intraperitoneal, 25 mg/kg weekly x3): 269 days
CCCCC1(CCCC)CN(c2ccccc2)c2cc(SC)c(OCC(=O)N[C@@H](C(=O)NCC(=O)O)c3ccccc3)cc2S(=O)(=O)C1  serum LDL-C (item: LDL cholesterol; human, serum; 20 mg once daily, day 13): 74 mg/dL
CC[C@@H](C)[C@@H](NC(=O)[C@@H](Cc1ccc(O)cc1)NC(=O)[C@H]1CCCN1C(=O)[C@@H](CCCNC(=N)N)NC(=O)[C@H](N)Cc1c[nH]cn1)C(=O)N[C@H](C)C(=O)N[C@H](Cc1c[nH]cn1)C(=O)N[C@H](CCCNC(=N)N)C(=O)N[C@H](CCCCNC(=O)c1cccc(S(=O)(=O)F)c1)C(=O)N[C@H](Cc1ccc(O)cc1)C(=O)N[C@H](CO)C(=O)N[C@H](Cc1ccccc1)C(N)=O  IFN-γ+ CD8+ T cell frequency (ex vivo flow cytometry; GL261-Luc brain tumour mice, spleen; dose not given): 11.8% and 18% and 3.68% and 7.33%
CC(C)(C)CC(C)(C)c1ccc(OCCOCC[N+](C)(C)Cc2ccccc2)cc1  fEPSP slope (C57BL/6J mouse, male, hippocampal slices, Schaffer collateral-CA1; 50 nM, 60 min; reference: vehicle): increased
COc1ccc2c(c1)CC[C@@H]1[C@@H]2CC[C@]2(C)[C@@H](NCCCCCCN3C(=O)C=CC3=O)CC[C@@H]12  inhibition (calcium response, decay phase; N2a, mouse; 1 µM, added: BzATP 300 µM): 55%
Cc1nc(Nc2ccc(CC(=O)O)cc2)nc(Nc2ccc(F)c(C(F)(F)F)c2)c1C  mRNA level (item: CPT1A; C57BL/6J mice, high-fat diet, liver; intraperitoneal, 0.3 mg/kg daily, 60% fat diet 12 weeks, dosed last four; reference: vehicle): decreased
C[C@H]1O[C@@H](O[C@H]2CC[C@@]3(C)[C@@H](CC[C@]4(C)[C@@H]3C=C[C@]35OC[C@@]6(CCC(C)(C)C[C@H]63)[C@@H](O)C[C@]54C)[C@]2(C)CO)[C@H](O)[C@@H](O[C@@H]2O[C@H](CO)[C@@H](O)[C@H](O)[C@H]2O)[C@H]1O  mRNA level (item: ACC-1; ethanol-fed mice, hepatic SIRT1 knockdown (AAV8-TBG-SIRT1), liver; dose not given, high dose, unit not given; reference: AAV8-TBG-Null ethanol group): 1.09 and 1 and 0.77 and 1.48 and 1.02
[131I-].[Na+]  indeterminate response (ATA response criteria; human, papillary thyroid cancer with metastases; 3700 MBq): 17.6%
COc1cc2nccc(Oc3ccc(NC(=O)c4cc5c(n(-c6ccccc6)c4=O)CCCC5=O)nc3)c2cc1OC  resistant disease treatment failure (patients, with AML, R/R; dose not given, monotherapy): 65%
c1csc(-c2ccc(-c3cccs3)s2)c1  steatosis (H&E histology; C57BL/6J diet-induced obese mice; intraperitoneal, 5 mg/kg daily, 14 days): 27.4%
CC[C@H](C)[C@@H]1NC(=O)[C@@H]2CCCN2C(=O)[C@H](CC(C)C)NC(=O)[C@H](CC(C)C)NC(=O)CNC(=O)[C@@H](NC(=O)[C@@H](NC(=O)[C@H](CC(=O)O)NC(=O)CNC(=O)[C@@H](NC(=O)[C@H](C)NC(=O)CNC(=O)[C@H](CCCCN)NC(=O)[C@H](CC(C)C)NC(=O)[C@H](CC(C)C)NC(=O)[C@H](CCCCN)NC(=O)CNC(=O)[C@@H](NC(=O)[C@@H](N)CC(C)C)C(C)C)C(C)C)C(C)C)CSSC[C@@H](C(=O)O)NC1=O  log2 fold change (RNA-seq, item: Egln3; mouse, traumatic brain injury model, frontal cortex and hippocampus; dose not given; reference: TBI alone): -1.37
C[C@]12CC[C@H](O)C[C@H]1CC[C@@H]1[C@@H]2CC[C@]2(C)[C@@H](c3ccc(=O)oc3)CC[C@]12O  tumour volume (female nude mouse LCC2 xenograft; 1.0 mg/kg, day 3, tamoxifen-resistant): 27.5 mm3 and 20 mm3 and 27.3 mm3 and 41.6 mm3 and 39.4 mm3 and 26.6 mm3 and 30.3 mm3
NNc1ccccc1  normalised absorbance (hydrazine ligation kinetics, absorbance; concentration not given, 25 s, added: 2-formylphenylboronic acid): 0.882
NC1C2CC3CC(C2)CC1C3 (stereo not shown)  IC50 (pH gradient; Escherichia coli inverted membrane vesicles): > 1 mM
FC(F)(F)c1ccc2c(c1)[C@@H]1CNC[C@H]2C1  ethanol preference (intermittent two-bottle choice; Wistar rat, 20% ethanol drinking; subcutaneous, 5 mg/kg, 24 h; reference: ethanol over total fluid intake): 42 ± 4%
O=S(=O)([O-])C(F)(F)C(F)(F)C(F)(F)C(F)(F)C(F)(F)C(F)(F)C(F)(F)C(F)(F)F.[K+]  protein expression (Western blot, item: Aldh1a1; EtOH-fed mice, liver; dose not given; reference: efavirenz): increased
[Cl][Ru-]([Cl])([Cl])[Cl].[Na+].c1ccc2[nH]ncc2c1.c1ccc2[nH]ncc2c1  duration of partial response (CT, RECIST 1.1; human; 320 mg/m2): 9 weeks
C[C@H](N)Cn1ncc2ccc3c(c21)CCCO3.Cl  maximum DOM-lever responding (drug discrimination; rat trained on DOM; i.p., 0.3 mg/kg): 99%

Excerpt of the above:
[131I-].[Na+]  indeterminate response (ATA response criteria; human, papillary thyroid cancer with metastases; 3700 MBq): 17.6%
